# Measured values of several laboratories.
# Numbered parts are unrelated; each lists some results of a single study. Changes are numbered by the printed parent chain.

# Series 1
# Target: ABI1, truncated, D143A, DHFR fusion (Arabidopsis thaliana)
# Method: DHFR PCA, deep sequencing
# Matrix: yeast
# Setting: methotrexate growth selection, single substitutions
# Together with: (+)-ABA 0 µM
# Relative to: wild-type fitted maximum
# Reading: higher = stronger binding
# Starting sequence: PYL1, truncated, DHFR fusion (Arabidopsis thaliana); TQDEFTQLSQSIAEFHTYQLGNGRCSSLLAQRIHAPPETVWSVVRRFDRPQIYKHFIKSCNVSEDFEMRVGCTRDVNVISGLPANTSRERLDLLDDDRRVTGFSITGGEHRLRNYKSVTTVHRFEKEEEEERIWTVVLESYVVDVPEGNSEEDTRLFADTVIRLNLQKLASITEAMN; partner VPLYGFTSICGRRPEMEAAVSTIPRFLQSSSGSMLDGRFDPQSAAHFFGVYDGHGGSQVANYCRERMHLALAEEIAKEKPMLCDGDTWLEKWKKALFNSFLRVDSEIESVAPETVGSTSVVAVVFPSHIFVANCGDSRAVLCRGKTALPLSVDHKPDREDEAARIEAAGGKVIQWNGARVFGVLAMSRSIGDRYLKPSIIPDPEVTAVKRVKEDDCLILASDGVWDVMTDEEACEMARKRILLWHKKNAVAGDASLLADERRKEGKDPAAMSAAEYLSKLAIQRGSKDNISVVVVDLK
Variant,relative binding score [%]
T135L,-9.56
A35Y,-1.17
A30C,5.92
S11H,10.2
E130G,26.6
S26R,2.11
S87I,48
I33V,4.99
G81S,37.5
S171L,16.1
E38D,22.4
D65E,13
F103R,-0.978
F15I,-2.36
E14A,5.5
D97K,30.8
H55M,17.8
H122Q,2.24
Y53P,-0.307
E109W,-7.2
K168L,-2.78
F66T,-5.18
Q19W,1.52
G21E,34.8

# Series 2
# Target: CCNE2, cyclin fold, Cln2 fusion (human)
# Method: yeast growth competition, sequencing
# Matrix: yeast
# Setting: weak parent motif
# Relative to: not given
# Reading: higher = stronger binding
# Starting sequence: CDAN1 docking peptide (human); RGARSQLFPPTEA
Variant,normalised enrichment score
RGARSQLFPATEA [P10A],0.697
RGARSQLFPPAEA [T11A],0.24
RGARSQLAPPTEA [F8A],0.608
RGARSQLFAPTEA [P9A],0.268
RGARAQLFPPTEA [S5A],0.23
RAARSQLFPPTEA [G2A],0.412

# Series 3
# Target: Prothrombin, mature alpha-thrombin (F2, Homo sapiens, UniProt P00734)
# Method: aptamer microarray, sandwich
# Form: DNA with 2'F-ANA
# Matrix: in vitro
# Tested at: 200 nM
# Setting: whole 15-mer aptamer, many near background
# Together with: Cy3 exosite-II aptamer, 400 nM
# Reading: higher = stronger binding
# Sequence: GGTTGGTGTGGTTGG
Modification,mean fluorescence intensity
2'F-ANA at 2 3 7 10 11 12 15,440 a.u.
2'F-ANA at 2 3 6 7 8 9 10 12 13 14,251 a.u.
2'F-ANA at 3 4 5 7 9 11 12 13 14 15,72.8 a.u.
2'F-ANA at 2 3 5 6 7 8 9 12,187 a.u.
2'F-ANA at 2 5 6 8 10 11 12 13,48.1 a.u.
2'F-ANA at 2 4 7 8 12,763 a.u.
2'F-ANA at 1 2 3 4 6 7 8 9 10 11,69.9 a.u.
2'F-ANA at 1 4 6 7 8 9 12,317 a.u.
2'F-ANA at 2 3 4 5 7 8 9 10 11 13,51.9 a.u.
2'F-ANA at 1 3 6 7 11 13 15,190 a.u.
2'F-ANA at 3 13,1010 a.u.
2'F-ANA at 1 3 5 6 7 8 9 11,59.2 a.u.
2'F-ANA at 2 6 9 10 12 14 15,82.7 a.u.
2'F-ANA at 4 5 6 9 12 15,128 a.u.
2'F-ANA at 2 3 4 8 10 11 12 13 14,161 a.u.
2'F-ANA at 1 2 4 9 12 14 15,109 a.u.
2'F-ANA at 3 4 9 13 15,476 a.u.
2'F-ANA at 1 3 6 7 8 14 15,99.8 a.u.
2'F-ANA at 5 6 7 9 11 12 14,47.4 a.u.
2'F-ANA at 6 7 9 11 12 13 15,412 a.u.
2'F-ANA at 6 7 9 11 14 15,143 a.u.
2'F-ANA at 1 4 5 6 7 8 9 11 15,84.1 a.u.
2'F-ANA at 1 2 5 6 12 14 15,48.9 a.u.

# Series 4
# Target: POU domain, class 5, transcription factor 1, POU domain (Pou5f1, Mus musculus, UniProt P20263, residues 131-289)
# Chain of UniProt P20263 (131-289, looked up): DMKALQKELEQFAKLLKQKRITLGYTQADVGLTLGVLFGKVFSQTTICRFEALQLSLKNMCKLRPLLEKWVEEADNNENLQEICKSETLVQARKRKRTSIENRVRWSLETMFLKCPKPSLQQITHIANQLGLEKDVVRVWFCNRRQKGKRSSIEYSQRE
# Method: Spec-seq
# Form: double-stranded DNA, one strand shown
# Matrix: in vitro
# Tested at: not given
# Setting: whole probe, mean of replicates
# Relative to: not given
# Reading: lower = stronger binding
# Constant ends, left off below: GAGTCGTCTCGTCAGCAC … CCGTAGAGCACTCAGGTC
Sequence,relative binding energy [ln ratio]
ATGCATTG,-0.407
GGGATAAT,0.638
CCGCTAAT,0.685
ATGCATAC,-1.29
ATGCTGGA,0.576
CGACTAAT,0.378
CATATAAT,0.628
ATCCGGAT,0.819
ATCGGCAT,0.402
CCAATAAT,0.449
ATGCGTGT,0.371
ATGCTAGA,0.604
ATGCATCG,-0.345
GCTTTAAT,0.541
CACTTAAT,0.535
ATAGTCAT,0.43
ATGCTTTA,0.578

# Series 5
# Target: RNA binding protein fox-1 homolog 2, RRM domain, GST-SBP tag (RBFOX2, Homo sapiens, UniProt O43251-10, residues 100-194)
# Method: RNA Bind-n-Seq
# Form: RNA
# Matrix: in vitro
# Tested at: 365 nM
# Setting: natural RNA segment, single round, ends assumed
# Relative to: no-protein control
# Reading: higher = stronger binding
# Constant ends, left off below: GGGAGUUCUACAGUCCGACGAUC … UGGAAUUCUCGGGUGCCAA
# Residues (chain): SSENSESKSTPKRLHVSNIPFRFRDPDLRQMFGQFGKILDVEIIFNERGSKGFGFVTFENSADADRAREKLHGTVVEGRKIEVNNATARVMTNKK
Sequence,RBNS enrichment (R)
AGAUUCCAGACUCUGAUUCAUUAAACUAUAGUCACCCGUGUCCUGUGAUUUUAGUUUUCAUUUGUGUUUAUGUCUGUGCUGCAGACGGAUGGGUGGGGUGCGCUUCUUUA,0.929
UACGUCCUUGCUUCCUCUGAGCAGAGGCCUCCAUCUUAGUAUCAACAUAUUUAAAGAAAUUGAUGGUGUUCAUCAAGCUGGGGCCUGUGGCAGUUGUUGCCUGAGCACCA,0.309
AGGGCUGGGCAGCAGGGAGCCUGGGACUGAACAAUAAACCCAUGAUCUCCUGCCUCACACACCUGUUUGUGACUUUCCCAGCAAGUAGCUCUGUUACCCUGAGAACACCA,0.657
UACAUCUCCAUUACAAGUUGGAACUCAGUAGAAUCAAACCUUGUUACUUUAAGAUCUGUAGAAAUAAACCUAAGUUAAUUUUCCCCCAAAUCACGAGCAUCCGUGAUGGG,0.568
UUACCUUAAAGUGGAAUCAGAAUGAGGUUCCCAAGCAAGAACUUGCCACCAAGGCCCCAAAGGAUAGGGACGGUCGUAUCCUUAUGAAUCCCACUAAAACUUAGGCUGGG,0.326
CCAGGCGCUUAAGGGACAGAUACAUCACAUCCUAAGUUUGGGAAAGGCCUUUGACCCAUGUCAUCUGAGCGUCUCCUCCAGUAGCUCUGAAAGCUGUGGACACCAAUGGC,0.248
UAAUAUUAGUUCAAAAUUGUUAAAAAUACCUUUAGAAGGUCUAGUCUAUUAUUGAAAACUCAAUUUUUUCACUUAUAUGGCUUUAAAAUGGAGCUAUUUUGCUACAAUAU,0.59
UGUAUGACCAAAGCAUUUGAUGCCAAAAUUUGACGUUAAAGUAAUGAUUUGAUUUCCUGCCCUGGUUUUGAAGGUCCAUUUUUUUCCCUUUUGCAUUGACUUGCUUGUUU,0.664
GCCUUGCAGUAGGCAGUAGACUAUAAGCAGAAGCACAUAUGAACUGGACCUGCACCAAAGCUGGCACCAGGGCUCGGAAGGUCUCUGAACUCAGAAGGAUGGCAUUUUUU,2.92
UCGGGUUCUCUGUAAUACUCAAGUCCUCUCUCAUUCUUACCUACCUCGACUCUUGAGAGGGAGGCUUUGGUAUCCUUGGGUCUCAGCAUGGACAGUUAUGUAUAUCUACU,1.82
CAGAUGUGAAGCCUGGAGCUUUCCUGAUGAUGCUGGCCCUACAGUACCCCCAUGAGGGGAUUCCCUUCCUUCUGUUGCUGGUGUACUCUAGGACUUCAAAGUGUGUCUGG,0.34
UUAGCCAGCUAGUGACGAGUACAACGAGAUAACGCCCAUGUGUUUUGGAACAUUUAUGUAAGAUUGUCAUAUGAAAUGUAUUUGGGAACUACAUUAAACUUUUAACUAAA,1.02

# Series 6
# Target: Centromere-binding protein 1, full length, N-terminal tag (CBF1, Saccharomyces cerevisiae, UniProt P17106, residues 1-351)
# Chain of UniProt P17106 (whole entry, looked up): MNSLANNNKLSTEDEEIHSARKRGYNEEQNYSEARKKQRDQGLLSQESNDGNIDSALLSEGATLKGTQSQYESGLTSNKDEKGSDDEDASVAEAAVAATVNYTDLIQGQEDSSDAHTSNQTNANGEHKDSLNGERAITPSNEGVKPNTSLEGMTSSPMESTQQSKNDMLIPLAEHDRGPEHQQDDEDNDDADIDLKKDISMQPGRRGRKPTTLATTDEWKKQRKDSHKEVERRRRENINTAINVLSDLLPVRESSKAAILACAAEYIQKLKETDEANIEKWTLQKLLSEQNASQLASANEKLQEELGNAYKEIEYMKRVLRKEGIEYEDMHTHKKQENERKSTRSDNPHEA
# Method: protein-binding microarray
# Form: double-stranded DNA, one strand shown
# Matrix: in vitro
# Tested at: 0.8 µM
# Setting: whole 60-bp probe, no competitor
# Reading: higher = stronger binding
# Constant ends, left off below: … GTCTTGATTCGCTTGACGCTGCTG
Sequence,fluorescence intensity
CTACATACACGAACCCGCGTGCGCCTGGTAAATTTC,497 a.u.
GAAGACCACCTTGCGCACGGGAACGCCGCACTGTAG,667 a.u.
GAACTCCAGAGTCACCACGACTGCGACTAGTATTAG,511 a.u.
GAAACGTCGAAGCTAAACGTGAGAATTCCCCTGTAG,509 a.u.
CTATGCTAAACTGGTCACGCCGTTATAGACAGCTTC,1420 a.u.
TGTACGAAGCTATATTTCATCACTATAGTAGTTAGG,531 a.u.
GAACTTTCATCAATTCACGTTATTTTGCCGCCGTAG,642 a.u.
CCTAACTACTATAAACTCATGATATAGCTTCGTACA,533 a.u.
CTAGCGTATCCAGTTTACGTGTGATGGCAATGTTTC,531 a.u.
GAATGCGGATACGGTCACGCATCCGCAGAACAGTAG,1210 a.u.
CTATATATTACTCATCAGTTGTGTGTGAAAAATTTC,573 a.u.
CTAAATTGTTAAGACATCGTGCGCCTAGCCTACTTC,524 a.u.
GAATCATCGGAAAATGACGTGGCTTGGAGCGCATAG,492 a.u.
GAATTAACAATCACTCATGTGCATTGCACCTTATAG,551 a.u.
TGTACGAAGCTATCTATCGTGTCTATAGTAGTTAGG,523 a.u.
GAAGGTTATGGTTTTCGTGTGACCTTGTTTTGATAG,591 a.u.
CTACTTGTTGCAATAAGCGTGAGGTATGCCGAGTTC,512 a.u.
CTACGGATGGATTCTCAACTGATATTTATATGGTTC,517 a.u.
GAAGGAACTGTACAACACGTTCAACCAAAACTATAG,552 a.u.
CTATCGAGCGGTAATCATGAGGGTCCCTGGTAGTTC,508 a.u.
CTATATAAAACTGCTCATCAGATTCATCCTGCTTTC,509 a.u.
CTAAGCTTTTCTATTCATGTGATACATCGCCTTTTC,1070 a.u.
CTAGCAACATAACACCACCTTCTTTTAGTCTTTTTC,504 a.u.
